Published values of several laboratories.
Every numbered part comes from another study and shows a few of its results, in no order.

Block 1 — technique: protein binding microarray; molecule type: double-stranded DNA, one strand shown; sample: in vitro; concentration: not given; baseline: not given; direction: higher = stronger binding
Target: Histone acetyltransferase KAT6A, winged helix 2, GST fusion (KAT6A, Homo sapiens, UniProt Q92794, residues 85-181)
Setting: 8-mer, flanks averaged, mean of 2 arrays, mostly near background
Target sequence (chain): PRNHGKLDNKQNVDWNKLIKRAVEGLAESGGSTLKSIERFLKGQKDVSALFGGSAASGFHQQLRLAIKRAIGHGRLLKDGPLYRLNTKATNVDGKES
Oligonucleotide | E-score
CAGGCGGG | 0.222
GCGTATCA | 0.13
ATCTCCTC | -0.00488
AGTGCCAC | -0.0285
AGGTCGCC | 0.0181
GGGGAGGA | 0.158
CTTGGTCC | 0.007
CTATGATA | 0.137
AAGACTAA | -0.13
ATTCCACG | -0.0898
ACACACCC | 0.0184
CATAGCTA | -0.212
AGTCTTAC | -0.207
ACCGAGGG | -0.0547
CGATATAA | -0.0409
AGTGGATC | 0.0141
AAATCAGC | 0.0867
CGTGTACA | 0.0753
GTTGAACA | 0.0301
ACTTGGGC | -0.153
TCATACAA | 0.0236
AGAGCGCA | -0.0822
TACCAAAA | -0.0942
AAGCGCCC | 0.0482
GAGTCGAA | 0.068

Block 2 — technique: protein-binding microarray; molecule type: double-stranded DNA, one strand shown; sample: in vitro; concentration: 940 nM top; setting: 60-bp whole probe; with: salmon DNA 0.4 mg/ml; baseline: random background probes; direction: higher = stronger binding; shared flanks, not repeated: GCCTAGCAC … GTCTTGATTCGCTTGACGCTGCTG
Target: Interferon regulatory factor 5, full length, phosphomimetic (IRF5, Homo sapiens, UniProt Q13568-2, residues 1-514, S451D/S453D/S456D/S462D)
Oligonucleotide | fitted relative affinity [z-score]
AACGGTTTCGACACTGGGGACGTGCTA | 7.27
CAGCATCTGCAACATCTACAAGTGCTA | 0.0394
TTGGGACTGGGGACTGGGTTAGTGCTA | -0.216
GACGGTTTCGGGAATGGGGACGTGCTA | 7.04
TCATTTTTTTTTTGGAAACTGTGCTAG | 0.622
GACGATTTCAGTCCCGAGACGTGCTAG | 0.396
AACTTTCTCTGCTCTTTTCAAGTGCTA | 2.24
GGCCGTCTGAGCTCCGTAGCGTGCTAG | -0.861
ATTGTTTCCTCTTTCACTGCGTGCTAG | 2.22
GACGATTTTGGGTTTCGAGACGTGCTA | 2.82
TTATGTATCGGTCTCGGTTAGTGCTAG | 6.13
TTAGGACTGCTACTGCTTTAGTGCTAG | -0.372
TTAGGACTGGGTTTCGGTAAGTGCTAG | 5.55
TCATTTCTAATATTCTGACTGTGCTAG | 0.507
TTAGGTTTCGACTGTCGGTTAGTGCTA | 10.1
TCACTCTTCTTGCATCTGACTGTGCTA | 1.32
TTTCTCTGCTCTTTTCAACAAGTGCTA | 4.03
CACGGACTGGACACTGGGGACGTGCTA | -0.829
TTAGGTTTTGACTATCGGTTAGTGCTA | 1.17
TTAGGTATCCTGCTCCTTTAGTGCTAG | 0.147
GACGATTCCAGTTGCGAGACGTGCTAG | 0.227
GTCGGTCTCGGTATCGGGACGTGCTAG | 6.87
TAAGGACTGGACTTTCGGTTAGTGCTA | 2.93
CCTTGTCCCCTCAGGTATGGGTGCTAG | 0.125
TCAGGTTTCGACACTGGGTTAGTGCTA | 7.06

Block 3 — technique: RNA Bind-n-Seq; molecule type: RNA; sample: in vitro; concentration: 365 nM; baseline: no-protein control; direction: higher = stronger binding
Target: RNA binding protein fox-1 homolog 2, RRM domain, GST-SBP tag (RBFOX2, Homo sapiens, UniProt O43251-10, residues 100-194)
Setting: natural RNA segment, single round, ends assumed
Target sequence (chain): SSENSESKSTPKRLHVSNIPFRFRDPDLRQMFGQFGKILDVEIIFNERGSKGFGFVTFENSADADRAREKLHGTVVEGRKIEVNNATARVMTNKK
Oligonucleotide | RBNS enrichment (R)
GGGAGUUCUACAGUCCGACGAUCAAGGGGCUUCUCCCUUUCCUUGAGCUCUCUGGACACUGCAGAGGACCCAUGGCCAUGGAACCCUGAAGAAGCAUGUCUGGCCGCCUCUGAGCUCCUCCCACCCUCCUCCAUGGAAUUCUCGGGUGCCAA | 3.46
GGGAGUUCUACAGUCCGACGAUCACAUGUAUUAUUUGAUACUAAAUUUUCAAUUAUUACUUCAAAAUAAGAGUCUGAGGAUUUCUUCUUACUGGCGUUCUUAAAGGUCUCUAAAAUUAAAGAACAAGAUGUGGUGGAAUUCUCGGGUGCCAA | 0.681
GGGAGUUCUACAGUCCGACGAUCGAGUGCUGUUGGUACACGGAGCCCCCUCCUCCAUACCCAUUGCUGCACCACCACUGUGGAUUGCACGCCUUUCUGGGUGGCUGCAGUCUCUGUCCCUUGUGAAAGCAUGGUGGAAUUCUCGGGUGCCAA | 3.95
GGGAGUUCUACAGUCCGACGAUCAGGGGAAUUUAGAGGGAAAAAAAAUCCAUGUUUUCUAUUUCCCAGGUUUUUAAAAAGUAGCUCUUCCCCAACCCCGUUGCUAGCUUGUUGCAAUAUAAAAGCCCUGGUGCUGGAAUUCUCGGGUGCCAA | 0.642
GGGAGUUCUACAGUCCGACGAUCUAGAACUAUCCUUGUUCGAUAGCAUAGGAAAAUGUUCUGGUGAUUGUCAGGGUCUCCUAAUAUUUAUCUCAAUUCUUUUAUAAGUCUAUGGAAAUUAUUUAAUUAUUUUAUGGAAUUCUCGGGUGCCAA | 1.44
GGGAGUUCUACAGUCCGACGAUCGCAGUUGCCAUGAGCCAAACCCUAAGUUAAAUAUGUAUCCUACAUAAGAGCUAAUCUCACCACUACAUGCCCAUCUAUGGAAGAUCUAACAGAAGCUUAGGGAACUAAGCUGGAAUUCUCGGGUGCCAA | 0.322
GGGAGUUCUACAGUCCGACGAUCUUGUGGGGCUGCCCCUCCGGGUUUCUCAUCCUGUCCUUGGUGCCUUUUUCUGCCCAACAAGUCCAGGGAAGGCCGAGGUCUCAGACUCCUGGGUAGGGGUGGGGGUUUGAUGGAAUUCUCGGGUGCCAA | 0.359
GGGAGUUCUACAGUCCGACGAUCAUGUACCAACAGAAAUAUUAUUGUAAGAUGCCUUUCUUGUAUAAGAUAUGCCAAUAUUUGCUUUAAAUAUCAUAUCACUGUAUCUUCUCAGUCAUUUCUGAAUCUUUCCAUGGAAUUCUCGGGUGCCAA | 0.318
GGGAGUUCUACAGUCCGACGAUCGCUUCUAGAAGACUGACUGUGGAUUAGCUUAGUGUACAGACUUUAAACAGCUGCUCCCUCAGCUCAGAGUAGGUUCCAUAUCCUUUUUUUUUGUUUUGUUUUAAUGGCUCUGGAAUUCUCGGGUGCCAA | 1.72
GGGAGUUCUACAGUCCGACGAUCUGUAGUAUUCAUUUAGCCAUGUCUGCCAUGGGUCCAGAAAUGGGAAAGGGAAUUGCUGUCCUUGCCCUGUGGUAUGCUGCCACCUCUUUGGGAAGCAGGCCUUGCCCCUGUGGAAUUCUCGGGUGCCAA | 0.244
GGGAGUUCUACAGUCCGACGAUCCAAGUAAUAUUGCUCCUUUAAAAGGUGUGUUUUUAUUUCUGGUGAUGUCAGGGGCAACGGGGUAUCUUAGAAGCCUUAAAUGAGAGCUAAUAUAAUCCAGACAGCAAUGGUGGAAUUCUCGGGUGCCAA | 0.317
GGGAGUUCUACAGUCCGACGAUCUCCUUUCUUUAAACUAUAGGUAAUUAAGGCAGCUGAAAAGUAAAUUGCCUUCUAGACACUGAAGGCAAAUCUCCUUUGUCCAUUUACCUGGAAACCAGAAUGAUUUUGACUGGAAUUCUCGGGUGCCAA | 0.405

Block 4 — technique: universal PBM; molecule type: double-stranded DNA, one strand shown; sample: in vitro; concentration: not given; direction: higher = stronger binding
Target: Sal-like protein 4, full length isoform B (SALL4, Homo sapiens, UniProt Q9UJQ4-2, residues 1-616)
Setting: 8-mer, flanks averaged, mean of replicates
Residues (chain): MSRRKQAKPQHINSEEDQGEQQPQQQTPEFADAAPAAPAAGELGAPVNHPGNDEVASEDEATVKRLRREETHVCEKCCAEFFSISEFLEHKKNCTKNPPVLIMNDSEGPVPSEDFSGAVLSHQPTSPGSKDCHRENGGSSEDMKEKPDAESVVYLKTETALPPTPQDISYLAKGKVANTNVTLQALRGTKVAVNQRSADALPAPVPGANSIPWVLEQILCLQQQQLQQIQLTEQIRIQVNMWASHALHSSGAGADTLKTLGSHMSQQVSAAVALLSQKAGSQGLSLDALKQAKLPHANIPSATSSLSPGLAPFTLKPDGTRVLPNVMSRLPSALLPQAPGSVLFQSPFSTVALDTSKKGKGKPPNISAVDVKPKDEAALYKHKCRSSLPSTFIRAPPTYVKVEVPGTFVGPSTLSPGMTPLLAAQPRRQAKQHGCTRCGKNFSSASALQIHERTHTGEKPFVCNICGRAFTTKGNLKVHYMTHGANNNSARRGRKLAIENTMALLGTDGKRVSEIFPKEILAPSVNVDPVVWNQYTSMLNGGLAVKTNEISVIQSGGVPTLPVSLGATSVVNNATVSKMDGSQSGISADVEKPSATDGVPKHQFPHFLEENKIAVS
Oligonucleotide | E-score
TAACTAGA | 0.275
CTTTGTGC | 0.022
ACTCGAAA | 0.00801
AGCGGCAT | -0.125
ACTCTCCA | 0.0103
ACTCCCTC | -0.299
ATCCACAC | -0.161
GGTCCGAC | -0.341
GGGGAACC | -0.278
GCGGCACC | -0.295
CCAGCCGG | -0.32
CGCGAAAC | -0.216
GATTCGGC | -0.211
AAGGGCAC | -0.187
AACATGCC | -0.0839
ACAACGCG | -0.106
CCGAACCA | -0.0982
GAGCTCAA | -0.161
AAGAAGTC | 0.128
ATAATTAG | 0.361
AGGACTGA | -0.0754
AGTGGTAG | -0.0489
AGATTCGG | 0.00837
AGCGTCGA | -0.0808
CGCAGTGA | -0.0818
